Measurements collected from several papers.
Each numbered part is a random draw from the data of one study; scales do not carry over between parts.

Sample 1
Target: Interferon regulatory factor 3, full length, phosphomimetic (IRF3, Homo sapiens, UniProt Q14653, residues 1-427, S386D/S396D/S398D/S402D/T404D/S405D)
Method: protein-binding microarray
Form: double-stranded DNA, one strand shown
Medium: in vitro
Tested at: 2540 nM top
Notes: 60-bp whole probe
With: salmon DNA 0.4 mg/ml
Baseline: random background probes
Reading: higher = stronger binding
Shared flanks, not repeated: GCCTAGCAC … GTCTTGATTCGCTTGACGCTGCTG
Construct (chain): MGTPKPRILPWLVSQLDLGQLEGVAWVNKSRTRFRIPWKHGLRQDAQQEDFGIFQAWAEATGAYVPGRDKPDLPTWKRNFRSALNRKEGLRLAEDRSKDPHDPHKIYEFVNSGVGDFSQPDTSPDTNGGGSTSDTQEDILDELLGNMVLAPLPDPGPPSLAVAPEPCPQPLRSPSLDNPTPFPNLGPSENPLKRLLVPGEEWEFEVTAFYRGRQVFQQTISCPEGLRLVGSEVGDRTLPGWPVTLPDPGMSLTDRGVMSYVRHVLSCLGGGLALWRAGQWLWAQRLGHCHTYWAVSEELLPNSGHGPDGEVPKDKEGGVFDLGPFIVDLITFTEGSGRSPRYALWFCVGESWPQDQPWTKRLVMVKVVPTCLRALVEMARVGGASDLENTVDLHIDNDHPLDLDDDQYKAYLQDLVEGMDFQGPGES
`TTACATTTCAGTTCCGATTAGTGCTAG` — result for “fitted relative affinity”: 3.25 z-score.
`AACGATATCAGACTGGAGACGTGCTAG` — result for “fitted relative affinity”: 0.206 z-score.
Under “fitted relative affinity”, `GACGGACTGGGTATAGGGACGTGCTAG` is recorded as -0.732 z-score.
Under “fitted relative affinity”, `GACGATTTCAGACTAGAGACGTGCTAG` is recorded as 1.33 z-score.
`GTAGATTTCAGTCTCGATTAGTGCTAG`: “fitted relative affinity” 2.41 z-score.
For `TTAGGACTGGGGTAACGGTTAGTGCTA`, “fitted relative affinity” read -0.895 z-score.
`GACGGTCTCCTTCACCTGACGTGCTAG` — result for “fitted relative affinity”: 0.825 z-score.
`TTAGAAATTTCTTTCTAATTGTGCTAG` — result for “fitted relative affinity”: 1.02 z-score.
`TTAGGTTCGCTTTTCCTTTAGTGCTAG` — result for “fitted relative affinity”: 3.69 z-score.
`TGCTTTCTTTAACTCATTTTGTGCTAG` — result for “fitted relative affinity”: 1.11 z-score.
`TTAGGTATCGGGTATCGGTTGGTGCTA`: “fitted relative affinity” 1.74 z-score.
`TCAATTTTTAGTTAGAAACTGTGCTAG`: “fitted relative affinity” 0.309 z-score.
`TGTGGCTTAGTTTGTCAAAAAGTGCTA`: “fitted relative affinity” -0.42 z-score.
`GGGCGGGTGCCAACTCTTAGGTGCTAG`: “fitted relative affinity” -0.471 z-score.
For `TCAGCCATATTTATCTGACTGTGCTAG`, “fitted relative affinity” read 0.0445 z-score.
For `CTCCATGAACAGGGCTGATGGTGCTAG`, “fitted relative affinity” read -0.549 z-score.
`TTAGATATCAGTTTCGATGAGTGCTAG`: “fitted relative affinity” 3.68 z-score.
For `GTCATACGAGCGGTAGCCAAGTGCTAG`, “fitted relative affinity” read -0.292 z-score.

Sample 2
Target: RNA binding protein fox-1 homolog 2, RRM domain, GST-SBP tag (RBFOX2, Homo sapiens, UniProt O43251-10, residues 100-194)
Method: RNA Bind-n-Seq
Form: RNA
Medium: in vitro
Tested at: 365 nM
Notes: natural RNA segment, single round, ends assumed
Baseline: no-protein control
Reading: higher = stronger binding
Shared flanks, not repeated: GGGAGUUCUACAGUCCGACGAUC … UGGAAUUCUCGGGUGCCAA
Construct (chain): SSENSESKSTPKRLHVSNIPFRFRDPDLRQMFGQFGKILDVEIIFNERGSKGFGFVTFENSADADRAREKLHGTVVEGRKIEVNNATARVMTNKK
`CAUGGGGCCUGUGCCCACCCCUCUUGAGUGUCUUGGGGACAGCUCUUUCCACCCCUGGAAGAUGGAAAUAAACCUGCGUGUGGGUGGAGUGUUAGGACCAACGGUUUCCU` — result for “RBNS enrichment (R)”: 0.346.
For `AGCCCAUUGGCCGAGCUCCUGGGGAGCUCCUGGGACCCUUGGCUAUGAAAAUGAGCCCUGGCUCCCACCUGUUUCUGGAAGACUGCUCCCGGCCCGCCUGCCCAGACUGA`, “RBNS enrichment (R)” read 0.519.
`GCUGCAGAGAGAGAGAGUGUGUGUAUGUGUGCACAUGUGUGAGAGUGUGAGCGAGAGUGUGUGUGUGUCCAUCUAAGUGUGUGUGAUGAAGGUGGGAUAAGGCUCCUCUG` — result for “RBNS enrichment (R)”: 3.42.
`UCGCCCUCGUCCUACACCCUGGCUUCAGUGCAACUCUUUUCCUUCAGCUGCAUGUGAUUUUGUGAUAAAGUUCAGGUAACAGGAUGGGCAGUGAUGGAGAAUCACUGUUG` — result for “RBNS enrichment (R)”: 6.21.
`AGUAUUAUAGAAAUUUAUCCUAGCAAGACUUUACAAGAUAGGAUCAAAUUCUAAUGGAAUUGAGCCGGUUUCUUAUCCUAAAUGUUUCCUCCCUUUUUACAAUCUCUGUC`: “RBNS enrichment (R)” 0.817.
`UCCGGAUUUUCUUUUGGGGGUUAGAAGGUCAGGUGUGGAGACUGCUCGCCAGUCUCUGUGAGCCUAGGCCCUGAGCUGGGGAGGUGGGGAAGAUUCGGGCAUGUGAGUGC` — result for “RBNS enrichment (R)”: 0.559.
For `CCCACUCCAAAAGGUAGUACCUCAAGGCUUCUCGCACUCCCCUAUUUCCUCGGGAUAUGAGAAGCCUCGAUAAACAUCUCUGCCGUUCCCCAUCCCUAUAUCAACACUCU`, “RBNS enrichment (R)” read 0.51.
Under “RBNS enrichment (R)”, `CACAAUUUUCUAAAGAUGGUUUGGGCUUCCUUACCUCCCAGUGUGAAGUGUUUCAAAUGUCUGUCAGUUCUCUUGCACGGUCCUAAUAAAAGUGAAAGCCCUCUGUCACG` is recorded as 0.544.
`UCCUCACCGAGCAUGCUUCCCUAGGAUCCCGUCUUCCAGAGAACCUGUGGGCUGACUGCCCUCCGAAGAGAGUUCUGGAUGUCUGGCUCAAAGCAGCAGGACUGUGGGAA`: “RBNS enrichment (R)” 1.48.
`AUAAAAGAACUCAACUUUUACACUGAUAAAAUACUCUAGCUUGGGCCAGAGAAGACAGUGCUCGUUAGCACUGGUCCAGGAAACCCUGGCUUGCUUUCCAAGCCCAAUGA` — result for “RBNS enrichment (R)”: 0.456.
Under “RBNS enrichment (R)”, `UGACGACAGAGAUGAUGGUGUGGAUUAUUGGGCCAAAAGAGGAAGAGGUCGUGGUACUUUUCAACGUGGCAGAGGGCGCUUUAACUUCAAAAAAUCAGGUAGCAGUCCUA` is recorded as 0.636.
`UAAAGCCAGUGAAAAUUUCACCCUCUGAGGGAGUUCCCCAAUCUGAAGGGGAAGAGGGUGACCUCAGCGGCUUUUCUCCCAAAAAUCGGCUGAAGGCUGGUUGUGGAUCC`: “RBNS enrichment (R)” 0.856.

Sample 3
Target: Histone acetyltransferase KAT6A, both winged helices, GST fusion (KAT6A, Homo sapiens, UniProt Q92794, residues 1-181)
Method: protein binding microarray
Form: double-stranded DNA, one strand shown
Medium: in vitro
Tested at: not given
Notes: 8-mer, flanks averaged, mean of 2 arrays, mostly near background
Baseline: not given
Reading: higher = stronger binding
Construct (chain): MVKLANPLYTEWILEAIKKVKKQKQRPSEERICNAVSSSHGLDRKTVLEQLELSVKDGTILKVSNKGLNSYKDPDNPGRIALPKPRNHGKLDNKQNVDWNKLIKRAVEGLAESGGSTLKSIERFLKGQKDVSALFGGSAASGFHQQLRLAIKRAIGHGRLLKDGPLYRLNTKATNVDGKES
For `AGGATTGC`, the E-score was -0.106.
`CATAGTAA` gave an E-score of -0.131.
With `AAGCCTAC` the E-score was 0.00185.
The E-score of `TGACCGAA` is reported as 0.1.
With `GACAACAC` the E-score was 0.0281.
For `GGCGAGCC`, the E-score was -0.028.
`AATGACTC` gave an E-score of -0.145.
For `ACTCCCGA`, the E-score was -0.0439.
With `CCTGAGCA` the E-score was -0.089.
`AATCCAGG` gave an E-score of -0.208.
The E-score of `GCAGGCGC` is reported as 0.205.
`AGCTCGAT` gave an E-score of -0.157.
For `CGACCGCG`, the E-score was 0.366.
`AGGCAGTC` has an E-score of -0.0706.
For `AGTGGGTG`, the E-score was -0.248.
`TACGACCA` gave an E-score of -0.081.
`ATGGGTTG` gave an E-score of -0.146.
With `GCACATGC` the E-score was -0.00012.
With `GGGTCCAC` the E-score was -0.000395.
`AGCGTTCG` gave an E-score of 0.0196.
`AGTAATGG` has an E-score of -0.164.
With `CGGGTACA` the E-score was 0.208.
With `GCAACACA` the E-score was -0.0909.
For `GATATAAC`, the E-score was 0.0312.

Sample 4
Target: RING finger protein unkempt homolog, zinc fingers 1-6, SBP tag (UNK, Homo sapiens, UniProt Q9C0B0, residues 30-357)
Sequence of UniProt Q9C0B0 (30-357, looked up): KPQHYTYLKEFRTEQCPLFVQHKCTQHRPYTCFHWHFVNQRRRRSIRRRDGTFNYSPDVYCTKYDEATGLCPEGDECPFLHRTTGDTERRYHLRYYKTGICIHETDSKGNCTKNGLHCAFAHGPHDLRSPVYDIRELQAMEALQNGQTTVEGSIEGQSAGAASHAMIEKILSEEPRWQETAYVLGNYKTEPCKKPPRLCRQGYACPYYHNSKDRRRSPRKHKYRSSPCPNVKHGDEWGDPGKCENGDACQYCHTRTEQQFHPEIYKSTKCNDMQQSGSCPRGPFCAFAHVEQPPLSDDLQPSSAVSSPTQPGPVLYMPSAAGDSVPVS
Method: RNA Bind-n-Seq
Form: RNA
Medium: in vitro
Tested at: 100 nM
Notes: RNA with constant flanks, vertebrate orthologous sites, ends assumed
Baseline: input RNA pool
Reading: higher = stronger binding
Shared flanks, not repeated: GGGAGUUCUACAGUCCGACGAUC … CAACAGAGGAUUGAGCAUCA
With `UGCUCUCUUUCUAUAGGUAUCAUUGCCCAAUGCCCAAGAUCUUUUAUGUUCAGUUAACUGUAGGAAAUAAUGAAUUCUUUGGUGAAGGGAAGACUCGACAAGCUGCCAGACACAAUGCUG` the bound/input enrichment was 0.689 ratio.
The bound/input enrichment of `UCAUUGUACUACAAAAACCAUACUAGUUCUACACUAGCCACCGUGAUAACUAGUCUGCAUAGGUUGAGUCCUUUACUUUUUAAAUGAUUGGCUUUGUUUGAUACCUGAAACAAAUCACAA` is reported as 0.702 ratio.
The bound/input enrichment of `AAGAACAGGAGCAGCAUAGACUGAGCUUUGGGGAAAUGAGCUUUGCUUUUUGUAUUUAAAUAGGAUACUUUUAUAUGAUGGGUGCUUUGAGUGUGAAUGCAGCAGGCUCUCCAUUUCAGA` is reported as 1.1 ratio.
With `UCUAGUACUUAAGCUAGCAACAGUUCUAAAAUCAUAUUUAUUUGUCUGUAUGUUUGUACAUAGUACCAACCUCAUAUUGUUGCAGAUUUCUUUUUUCCAUGAGUUUGAGUUUGGUUUUAU` the bound/input enrichment was 0.502 ratio.
`UAUUUUCUUAUUUUAGAUAUCAUUGCCCGAUGCCUAAGAUCUUUUAUGUUCAGCUCACUGUAGGAAAUAAUGAAUUUUUUGGGGAAGGGAAGACUCGACAAGCUGCUAGACACAAUGCCG` gave a bound/input enrichment of 1.01 ratio.
`CCAAAAUUUUAACCAAGAAUCCGAAGGUAGAAAUACAGGGCCAUGGUUAUCUUCCUCACUUAGAAAUAGAUGCACACCUUUGUUCUCUAGAAGGAGGCGAGAGGGAAGAGAUGAAUCUUC` has a bound/input enrichment of 0.729 ratio.
For `UUGGAUGAGGGUAGAGGGGAGGGAGGGACAGGACAGUGUGGAAUCCCUAGGGUAUUAUGGGUAGGUAGGGGGAACAGUUCUAAGUGGGCCUUUGUUAAAAACCUCUGGAGAUGUUUGUUC`, the bound/input enrichment was 0.906 ratio.
`CAGGGUGGGACCCGGGACCCGCGGCUCAGUGACCCGCUAGCCACGUCAGCCAAGCCACUUUAGGUCCAUUUUUUUAUUUUAACAGUGCUCUUCCAUCUUGUGCAUAAGCCUGAGAUUUGG` gave a bound/input enrichment of 2.44 ratio.
`CAUAAUCACUCUAAUUGUAAUCUGACAAAGUGUAACAUUGUGUAGCCUUUUUGUAUAAAAUAGACAAAUAGAAACGGUCCAAUUGGUUUCCUUUUUAAUAUGCUUAAAAUAAGCAGGUGG` gave a bound/input enrichment of 1.13 ratio.
For `GAUUUGGACCUUGGAGCUGAACCAGGGAGCUAGCAAAAGUAAAGCAGACUUGUAAAAUUAUAGCUAUAUGCAGCUGCACAACACAGUCCUACCACUAGCAGCUGUGUUAAAGUAUUUAUA`, the bound/input enrichment was 0.653 ratio.
`UUGUGACUGGCUCUCCAAACAGGAAUAGUAGUAAAAAGAACAAACAAAAUGAUAUUUGUGUAGAAAAAUCAGAAAUUAAAUCAUGUAAAGUAAAUGCUGGCAGUAUUCCAGGGCCUAAAG` has a bound/input enrichment of 0.788 ratio.

Repeated from above (sample 2):
`AGUAUUAUAGAAAUUUAUCCUAGCAAGACUUUACAAGAUAGGAUCAAAUUCUAAUGGAAUUGAGCCGGUUUCUUAUCCUAAAUGUUUCCUCCCUUUUUACAAUCUCUGUC`: “RBNS enrichment (R)” 0.817.
`UCCGGAUUUUCUUUUGGGGGUUAGAAGGUCAGGUGUGGAGACUGCUCGCCAGUCUCUGUGAGCCUAGGCCCUGAGCUGGGGAGGUGGGGAAGAUUCGGGCAUGUGAGUGC` — result for “RBNS enrichment (R)”: 0.559.
For `CCCACUCCAAAAGGUAGUACCUCAAGGCUUCUCGCACUCCCCUAUUUCCUCGGGAUAUGAGAAGCCUCGAUAAACAUCUCUGCCGUUCCCCAUCCCUAUAUCAACACUCU`, “RBNS enrichment (R)” read 0.51.
Under “RBNS enrichment (R)”, `CACAAUUUUCUAAAGAUGGUUUGGGCUUCCUUACCUCCCAGUGUGAAGUGUUUCAAAUGUCUGUCAGUUCUCUUGCACGGUCCUAAUAAAAGUGAAAGCCCUCUGUCACG` is recorded as 0.544.
